Results pooled from the literature.
Parts stem from different laboratories: compare values within a part only.

Set 1
Target: Ras GTPase-activating protein-binding protein 1, C-terminal RGG region (G3BP1, Homo sapiens, UniProt Q13283)
Sequence of UniProt Q13283 (whole entry, looked up): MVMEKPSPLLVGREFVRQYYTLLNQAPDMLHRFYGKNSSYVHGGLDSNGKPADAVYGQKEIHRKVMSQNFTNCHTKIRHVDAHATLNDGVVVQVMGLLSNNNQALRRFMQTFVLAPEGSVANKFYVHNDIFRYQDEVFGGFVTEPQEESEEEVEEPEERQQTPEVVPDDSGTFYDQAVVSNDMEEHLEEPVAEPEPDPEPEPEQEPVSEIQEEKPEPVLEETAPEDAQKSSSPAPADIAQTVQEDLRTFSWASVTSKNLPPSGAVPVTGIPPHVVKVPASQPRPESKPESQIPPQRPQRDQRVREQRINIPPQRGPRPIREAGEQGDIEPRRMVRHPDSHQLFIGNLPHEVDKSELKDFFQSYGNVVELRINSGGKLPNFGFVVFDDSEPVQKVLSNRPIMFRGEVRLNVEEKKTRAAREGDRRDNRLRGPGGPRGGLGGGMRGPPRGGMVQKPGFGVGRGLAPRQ
Method: RNA Bind-n-Seq
Form: RNA
Sample: in vitro
Tested at: 1 µM
Notes: whole 134-nt RNA, ends assumed
Together with: 150 mM KCl
Relative to: input library
Direction: higher = stronger binding
The log2 enrichment of `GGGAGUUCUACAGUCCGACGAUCAAGUCCUGUGCUACACAUCGUAUGUACCGAAUCGGGCCCCGGCCCCGGCCCCGGGGAAAGUAUUAUGUUACGCCGUUCGGAUCUGCACUUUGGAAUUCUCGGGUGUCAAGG` is reported as -2.24.
The log2 enrichment of `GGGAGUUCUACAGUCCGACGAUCUGAAUCCUUCCUUGAUGAUGAAGAGGUAUGUCAACAAGGGUAAUAAUUUGUUUUCUUCUGAUUACUCUCAUAUUUUUAUUAUCUUUUAUUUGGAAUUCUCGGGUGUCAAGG` is reported as -1.47.
The log2 enrichment of `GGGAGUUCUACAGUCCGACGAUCACCAUGCAGGUGGGCAUCUUUGGGAAGUGGGGUAAGGGGGGGAUAGGGAGGGGGGUAACACUUUGGGAACAGGUGGUCCCAGGUCGUUUCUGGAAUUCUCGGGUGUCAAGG` is reported as -1.25.
With `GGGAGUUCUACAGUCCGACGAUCCUCAAGUCCUGUGCUACACAUCGUAUGUACCGAAUCGGGUUGGUUGGGUUGGGGAAAGUAUUAUGUUACGCCGUUCGGAUCUGCACUUCCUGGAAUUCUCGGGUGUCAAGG` the log2 enrichment was 0.271.
The log2 enrichment of `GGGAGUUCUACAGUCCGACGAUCUCCUGUGCUACACAUCGUAUGUACCGAAUCGGGAAAAAAAGGGAAAAAAAGGGAAAGGGAAAGUAUUAUGUUACGCCGUUCGGAUCUGCAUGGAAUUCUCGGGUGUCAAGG` is reported as -0.724.
The log2 enrichment of `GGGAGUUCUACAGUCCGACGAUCCAAGUCCUGUGCUACACAUCGUAUGUACCGAAUCGGGUUUGGUUUGGGUUUGGGGAAAGUAUUAUGUUACGCCGUUCGGAUCUGCACUUCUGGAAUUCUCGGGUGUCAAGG` is reported as -0.755.
`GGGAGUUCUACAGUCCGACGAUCGUCCUGUGCUACACAUCGUAUGUACCGAAUCGGUUUUUUGGGUUUUUUGGGUUUUUUGGAAAGUAUUAUGUUACGCCGUUCGGAUCUGCAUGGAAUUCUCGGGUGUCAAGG` has a log2 enrichment of -1.31.

Set 2
Target: Sal-like protein 4, full length isoform B (SALL4, Homo sapiens, UniProt Q9UJQ4-2, residues 1-616)
Method: universal PBM
Form: double-stranded DNA, one strand shown
Sample: in vitro
Tested at: not given
Notes: 8-mer, flanks averaged, mean of replicates
Direction: higher = stronger binding
Target sequence (chain): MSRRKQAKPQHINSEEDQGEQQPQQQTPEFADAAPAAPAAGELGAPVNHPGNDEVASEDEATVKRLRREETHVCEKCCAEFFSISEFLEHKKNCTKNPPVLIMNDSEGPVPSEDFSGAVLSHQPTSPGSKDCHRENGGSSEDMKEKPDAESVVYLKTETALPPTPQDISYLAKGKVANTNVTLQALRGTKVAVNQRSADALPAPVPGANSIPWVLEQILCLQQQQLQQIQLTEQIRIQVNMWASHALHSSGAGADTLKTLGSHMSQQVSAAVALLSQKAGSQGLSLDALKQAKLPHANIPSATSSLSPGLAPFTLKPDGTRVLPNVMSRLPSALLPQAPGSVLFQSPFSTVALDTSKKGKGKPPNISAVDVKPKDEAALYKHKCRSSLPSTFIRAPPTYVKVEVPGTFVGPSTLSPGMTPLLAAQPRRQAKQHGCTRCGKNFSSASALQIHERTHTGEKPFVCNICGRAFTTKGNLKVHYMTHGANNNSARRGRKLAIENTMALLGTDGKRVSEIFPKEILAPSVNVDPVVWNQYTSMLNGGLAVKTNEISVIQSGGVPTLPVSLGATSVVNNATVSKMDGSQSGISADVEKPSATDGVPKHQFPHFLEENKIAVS
With `ATCGTCAC` the E-score was 0.00937.
With `ATCATCGG` the E-score was 0.133.
`ACCACTCT` gave an E-score of -0.0967.
With `AGCAGTAA` the E-score was 0.125.
`AATAGGAC` gave an E-score of 0.161.

Set 3
Target: Interferon regulatory factor 7, full length, phosphomimetic (IRF7, Homo sapiens, UniProt Q92985, residues 1-503, S471D/S472D/S475D/S476D/S477D/S483D/S484D/S487D)
Method: protein-binding microarray
Form: double-stranded DNA, one strand shown
Sample: in vitro
Tested at: 2200 nM top
Notes: 60-bp whole probe
Together with: salmon DNA 0.4 mg/ml
Relative to: random background probes
Direction: higher = stronger binding
Shared flanks, not repeated: GCCTAGCAC … GTCTTGATTCGCTTGACGCTGCTG
Residues (chain): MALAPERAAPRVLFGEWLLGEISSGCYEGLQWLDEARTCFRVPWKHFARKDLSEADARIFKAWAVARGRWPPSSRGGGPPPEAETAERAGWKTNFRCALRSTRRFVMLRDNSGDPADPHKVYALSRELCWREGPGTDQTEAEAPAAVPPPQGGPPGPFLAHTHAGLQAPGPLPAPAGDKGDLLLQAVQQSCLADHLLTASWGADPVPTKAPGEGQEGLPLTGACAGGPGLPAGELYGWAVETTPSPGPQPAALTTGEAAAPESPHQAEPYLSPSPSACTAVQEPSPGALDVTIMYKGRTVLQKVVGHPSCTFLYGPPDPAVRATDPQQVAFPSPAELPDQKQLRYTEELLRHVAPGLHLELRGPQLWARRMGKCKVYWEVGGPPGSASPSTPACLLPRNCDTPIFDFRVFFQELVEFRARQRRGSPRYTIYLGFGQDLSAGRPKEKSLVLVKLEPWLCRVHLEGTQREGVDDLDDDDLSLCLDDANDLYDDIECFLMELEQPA
Under “fitted relative affinity”, `GAGGGACTGGGGACTGGGGACGTGCTA` is recorded as -0.711 z-score.
For `TGTGGCTTAGTTTGTCAAAAAGTGCTA`, “fitted relative affinity” read -0.293 z-score.
For `TCACTATTATATATATCACTGTGCTAG`, “fitted relative affinity” read 1.19 z-score.
`CTCCATGAACAGGGCTGATGGTGCTAG` — result for “fitted relative affinity”: -0.183 z-score.
`GACGGTATCGGGTATCGGGCCGTGCTA`: “fitted relative affinity” -0.338 z-score.
`TCACTGATCCATTTTGGACTGTGCTAG`: “fitted relative affinity” 0.767 z-score.
For `TTAGGTTTCGACTTTCGATTAGTGCTA`, “fitted relative affinity” read 9.64 z-score.

Other studies, line by line
`PhoQ, residues 284 288 289 292 302 303 TAVSDG` has a fold induction of 3.71 (PhoP, residues 12 14 15 18 19 LYFRQ (Escherichia coli, UniProt P23836); Sort-seq, refers to: YFP reporter; E. coli; PhoQ-PhoP variant library, together with: 10 µM Mg2+; relative to: high Mg2+ state, higher = stronger signaling).

Repeated from above (set 2):
`ACCACTCT` gave an E-score of -0.0967.
With `AGCAGTAA` the E-score was 0.125.
